# Measured values gathered from unrelated publications.
# Parts stem from different laboratories: compare values within a part only.
# UniProt Q14653, sequence (whole entry, unmodified, looked up): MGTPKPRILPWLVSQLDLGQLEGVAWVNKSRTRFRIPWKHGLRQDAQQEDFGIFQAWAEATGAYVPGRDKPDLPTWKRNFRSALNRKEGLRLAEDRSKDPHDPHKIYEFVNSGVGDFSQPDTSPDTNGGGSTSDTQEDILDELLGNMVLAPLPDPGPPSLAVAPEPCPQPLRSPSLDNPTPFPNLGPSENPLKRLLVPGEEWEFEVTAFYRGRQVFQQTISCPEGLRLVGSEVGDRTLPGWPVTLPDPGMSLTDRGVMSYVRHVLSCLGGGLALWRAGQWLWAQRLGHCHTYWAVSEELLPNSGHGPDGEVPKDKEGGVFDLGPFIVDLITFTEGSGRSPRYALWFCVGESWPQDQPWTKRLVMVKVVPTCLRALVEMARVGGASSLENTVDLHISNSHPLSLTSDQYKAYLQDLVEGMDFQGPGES

# Sample 1
# Target: Sal-like protein 4, full length isoform B (SALL4, Homo sapiens, UniProt Q9UJQ4-2, residues 1-616)
# Method: universal PBM
# Molecule type: double-stranded DNA, one strand shown
# Sample: in vitro
# Tested at: not given
# Notes: 8-mer, flanks averaged, mean of replicates
# Reading: higher = stronger binding
# Target sequence (chain): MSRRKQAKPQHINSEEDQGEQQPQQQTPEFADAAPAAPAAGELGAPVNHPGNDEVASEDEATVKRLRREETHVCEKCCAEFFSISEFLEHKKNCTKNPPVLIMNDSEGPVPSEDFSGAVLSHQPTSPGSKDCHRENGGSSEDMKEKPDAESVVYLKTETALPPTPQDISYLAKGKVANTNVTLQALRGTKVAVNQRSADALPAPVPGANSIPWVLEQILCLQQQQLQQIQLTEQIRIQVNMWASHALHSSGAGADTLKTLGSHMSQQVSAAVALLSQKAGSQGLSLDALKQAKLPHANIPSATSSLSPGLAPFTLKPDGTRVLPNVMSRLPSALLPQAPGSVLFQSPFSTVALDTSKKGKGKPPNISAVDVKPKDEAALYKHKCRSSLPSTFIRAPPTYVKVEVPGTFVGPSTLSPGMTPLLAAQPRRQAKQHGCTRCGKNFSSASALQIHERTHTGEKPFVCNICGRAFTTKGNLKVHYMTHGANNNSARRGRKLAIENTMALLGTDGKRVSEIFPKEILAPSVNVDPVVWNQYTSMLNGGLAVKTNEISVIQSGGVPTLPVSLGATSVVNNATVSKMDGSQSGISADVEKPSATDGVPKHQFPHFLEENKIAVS
Strand,E-score
CAAGGGTC,-0.2
AGTTCTAA,0.172
CTCGTCGA,-0.0718
AGTACGCA,-0.0436

# Sample 2
# Target: Histone acetyltransferase KAT6A, winged helix 1, GST fusion (KAT6A, Homo sapiens, UniProt Q92794, residues 1-85)
# Method: protein binding microarray
# Molecule type: double-stranded DNA, one strand shown
# Sample: in vitro
# Tested at: not given
# Notes: 8-mer, flanks averaged, mean of 2 arrays, mostly near background
# Relative to: not given
# Reading: higher = stronger binding
# Target sequence (chain): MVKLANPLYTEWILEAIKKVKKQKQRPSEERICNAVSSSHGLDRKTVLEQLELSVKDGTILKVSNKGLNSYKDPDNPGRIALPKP
Strand,E-score
AGACGCAC,0.15
TGTATCAA,-0.0886
ATCAGTTA,-0.103

# Single results of other studies
Molecule,target,assay,test system,conditions,how to read,endpoint,value
GCCTAGCACGGACAGTAATGGAGGTATAAGTGCTAGGTCTTGATTCGCTTGACGCTGCTG,"Interferon regulatory factor 3, full length, phosphomimetic (IRF3, Homo sapiens, UniProt Q14653, residues 1-427, S386D/S396D/S398D/S402D/T404D/S405D)",protein-binding microarray,"double-stranded DNA, one strand shown, in vitro","2540 nM top, 60-bp whole probe, with: salmon DNA 0.4 mg/ml","relative to: random background probes, higher = stronger binding",fitted relative affinity,-0.229 z-score
"PhoQ, residues 284 288 289 292 302 303 TVTVVA","PhoP, residues 12 14 15 18 19 FWNTL (Escherichia coli, UniProt P23836)","Sort-seq, measured: YFP reporter",E. coli,"PhoQ-PhoP variant library, with: 10 µM Mg2+","relative to: high Mg2+ state, higher = stronger signaling",fold induction,11.2
GCCTAGCACTCATCCATCACTTTCCAACTGTGCTAGGTCTTGATTCGCTTGACGCTGCTG,"Interferon regulatory factor 5, full length, phosphomimetic (IRF5, Homo sapiens, UniProt Q13568-2, residues 1-514, K96S/S451D/S453D/S456D/S462D)",protein-binding microarray,"double-stranded DNA, one strand shown, in vitro","250 nM, 60-bp whole probe, with: salmon DNA 0.4 mg/ml","relative to: random background probes, higher = stronger binding",log fluorescence,0.937 z-score

# Some of these lines once more (sample 1):
Strand,E-score
AGTACGCA,-0.0436
